Measurements pooled from the literature.
Parts stem from different laboratories: compare values within a part only.
Chain of UniProt Q8IYT8 (whole entry, looked up): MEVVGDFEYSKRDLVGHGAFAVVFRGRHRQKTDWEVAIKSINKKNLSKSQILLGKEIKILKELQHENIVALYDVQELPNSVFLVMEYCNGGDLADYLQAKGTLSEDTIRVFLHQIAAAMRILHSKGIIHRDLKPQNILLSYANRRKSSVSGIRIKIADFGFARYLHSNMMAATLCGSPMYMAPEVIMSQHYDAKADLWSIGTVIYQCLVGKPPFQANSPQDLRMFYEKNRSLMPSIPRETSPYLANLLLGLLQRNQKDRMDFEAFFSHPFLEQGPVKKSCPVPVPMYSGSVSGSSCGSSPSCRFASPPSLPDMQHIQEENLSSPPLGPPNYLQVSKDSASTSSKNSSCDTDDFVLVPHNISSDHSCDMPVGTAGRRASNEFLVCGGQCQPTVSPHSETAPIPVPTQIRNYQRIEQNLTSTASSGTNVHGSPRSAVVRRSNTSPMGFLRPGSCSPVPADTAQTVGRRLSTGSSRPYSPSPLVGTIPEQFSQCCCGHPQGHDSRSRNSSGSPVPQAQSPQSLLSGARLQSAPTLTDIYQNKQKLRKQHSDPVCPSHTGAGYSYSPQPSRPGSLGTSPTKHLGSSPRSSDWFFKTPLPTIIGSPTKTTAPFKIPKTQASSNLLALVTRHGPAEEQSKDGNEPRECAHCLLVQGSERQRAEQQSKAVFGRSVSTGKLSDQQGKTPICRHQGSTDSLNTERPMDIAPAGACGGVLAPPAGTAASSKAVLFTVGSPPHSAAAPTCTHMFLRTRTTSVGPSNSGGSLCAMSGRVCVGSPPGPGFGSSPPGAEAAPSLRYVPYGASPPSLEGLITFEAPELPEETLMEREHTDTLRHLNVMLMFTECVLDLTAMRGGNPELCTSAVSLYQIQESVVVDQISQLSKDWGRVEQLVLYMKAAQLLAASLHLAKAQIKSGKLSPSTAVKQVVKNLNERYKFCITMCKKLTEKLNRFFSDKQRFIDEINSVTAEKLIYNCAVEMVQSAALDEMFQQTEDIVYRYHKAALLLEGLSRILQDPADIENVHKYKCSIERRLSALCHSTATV
Chain of UniProt Q99558 (whole entry, looked up): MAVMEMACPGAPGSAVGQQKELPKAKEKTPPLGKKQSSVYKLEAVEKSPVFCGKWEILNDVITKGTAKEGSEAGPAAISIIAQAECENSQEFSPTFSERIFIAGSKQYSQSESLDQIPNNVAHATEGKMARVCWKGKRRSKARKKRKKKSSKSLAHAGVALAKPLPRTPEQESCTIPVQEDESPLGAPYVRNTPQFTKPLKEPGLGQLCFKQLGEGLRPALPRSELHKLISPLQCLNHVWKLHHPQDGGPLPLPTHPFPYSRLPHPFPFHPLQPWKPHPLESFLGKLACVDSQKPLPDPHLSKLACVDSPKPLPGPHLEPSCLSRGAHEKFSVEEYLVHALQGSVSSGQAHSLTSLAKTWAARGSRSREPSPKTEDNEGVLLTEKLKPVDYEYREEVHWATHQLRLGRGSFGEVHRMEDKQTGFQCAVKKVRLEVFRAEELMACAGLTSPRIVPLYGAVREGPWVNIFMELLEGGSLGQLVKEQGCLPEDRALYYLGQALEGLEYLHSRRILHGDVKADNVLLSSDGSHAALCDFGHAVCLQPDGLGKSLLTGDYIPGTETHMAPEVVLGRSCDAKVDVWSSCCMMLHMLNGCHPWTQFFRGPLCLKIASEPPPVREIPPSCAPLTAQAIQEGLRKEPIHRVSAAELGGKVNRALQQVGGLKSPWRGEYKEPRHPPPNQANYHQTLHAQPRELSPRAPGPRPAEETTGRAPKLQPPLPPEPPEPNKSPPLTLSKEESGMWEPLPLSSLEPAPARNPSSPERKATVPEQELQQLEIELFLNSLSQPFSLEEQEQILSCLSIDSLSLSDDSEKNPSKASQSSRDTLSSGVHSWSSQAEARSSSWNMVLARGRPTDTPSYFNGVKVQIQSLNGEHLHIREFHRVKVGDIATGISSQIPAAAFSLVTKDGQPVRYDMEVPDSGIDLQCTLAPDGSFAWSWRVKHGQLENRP
Chain of UniProt P20794 (whole entry, looked up): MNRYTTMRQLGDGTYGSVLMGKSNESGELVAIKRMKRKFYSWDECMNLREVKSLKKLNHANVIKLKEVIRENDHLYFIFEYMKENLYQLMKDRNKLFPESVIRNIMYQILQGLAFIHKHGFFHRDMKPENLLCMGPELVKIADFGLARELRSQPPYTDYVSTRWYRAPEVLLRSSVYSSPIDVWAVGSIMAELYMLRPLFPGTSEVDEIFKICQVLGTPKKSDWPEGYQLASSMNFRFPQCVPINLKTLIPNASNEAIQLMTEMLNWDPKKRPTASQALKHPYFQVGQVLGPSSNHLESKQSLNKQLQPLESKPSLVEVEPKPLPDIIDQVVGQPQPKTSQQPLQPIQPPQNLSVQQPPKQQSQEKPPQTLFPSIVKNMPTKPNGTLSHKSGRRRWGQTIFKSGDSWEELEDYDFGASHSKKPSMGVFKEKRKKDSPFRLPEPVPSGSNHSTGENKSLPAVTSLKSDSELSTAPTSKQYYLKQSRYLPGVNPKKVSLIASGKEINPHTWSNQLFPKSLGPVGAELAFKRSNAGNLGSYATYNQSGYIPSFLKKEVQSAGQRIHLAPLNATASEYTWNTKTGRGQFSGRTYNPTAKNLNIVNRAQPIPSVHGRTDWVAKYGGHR
Chain of UniProt P11362 (whole entry, looked up): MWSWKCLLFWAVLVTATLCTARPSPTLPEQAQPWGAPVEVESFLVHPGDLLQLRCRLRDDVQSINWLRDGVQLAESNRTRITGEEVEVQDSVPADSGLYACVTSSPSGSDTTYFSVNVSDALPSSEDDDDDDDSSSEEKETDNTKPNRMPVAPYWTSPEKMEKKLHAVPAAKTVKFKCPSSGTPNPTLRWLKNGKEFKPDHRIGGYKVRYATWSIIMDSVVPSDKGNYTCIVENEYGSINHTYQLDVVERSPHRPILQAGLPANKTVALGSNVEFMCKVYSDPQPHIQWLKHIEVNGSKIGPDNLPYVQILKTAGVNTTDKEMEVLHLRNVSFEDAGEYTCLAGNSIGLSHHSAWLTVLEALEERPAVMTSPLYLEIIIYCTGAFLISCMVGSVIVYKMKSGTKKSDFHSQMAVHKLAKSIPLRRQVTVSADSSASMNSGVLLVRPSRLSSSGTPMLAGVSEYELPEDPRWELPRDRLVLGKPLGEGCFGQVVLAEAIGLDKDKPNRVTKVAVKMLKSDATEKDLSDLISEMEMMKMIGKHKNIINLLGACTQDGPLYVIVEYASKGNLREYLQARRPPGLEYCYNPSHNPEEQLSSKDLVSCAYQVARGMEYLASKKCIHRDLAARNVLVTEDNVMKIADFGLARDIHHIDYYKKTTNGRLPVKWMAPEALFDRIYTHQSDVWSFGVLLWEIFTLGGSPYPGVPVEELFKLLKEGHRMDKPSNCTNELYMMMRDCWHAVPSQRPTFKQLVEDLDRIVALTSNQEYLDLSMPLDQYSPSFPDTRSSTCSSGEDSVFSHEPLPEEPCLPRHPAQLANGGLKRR
Chain of UniProt O75385 (whole entry, looked up): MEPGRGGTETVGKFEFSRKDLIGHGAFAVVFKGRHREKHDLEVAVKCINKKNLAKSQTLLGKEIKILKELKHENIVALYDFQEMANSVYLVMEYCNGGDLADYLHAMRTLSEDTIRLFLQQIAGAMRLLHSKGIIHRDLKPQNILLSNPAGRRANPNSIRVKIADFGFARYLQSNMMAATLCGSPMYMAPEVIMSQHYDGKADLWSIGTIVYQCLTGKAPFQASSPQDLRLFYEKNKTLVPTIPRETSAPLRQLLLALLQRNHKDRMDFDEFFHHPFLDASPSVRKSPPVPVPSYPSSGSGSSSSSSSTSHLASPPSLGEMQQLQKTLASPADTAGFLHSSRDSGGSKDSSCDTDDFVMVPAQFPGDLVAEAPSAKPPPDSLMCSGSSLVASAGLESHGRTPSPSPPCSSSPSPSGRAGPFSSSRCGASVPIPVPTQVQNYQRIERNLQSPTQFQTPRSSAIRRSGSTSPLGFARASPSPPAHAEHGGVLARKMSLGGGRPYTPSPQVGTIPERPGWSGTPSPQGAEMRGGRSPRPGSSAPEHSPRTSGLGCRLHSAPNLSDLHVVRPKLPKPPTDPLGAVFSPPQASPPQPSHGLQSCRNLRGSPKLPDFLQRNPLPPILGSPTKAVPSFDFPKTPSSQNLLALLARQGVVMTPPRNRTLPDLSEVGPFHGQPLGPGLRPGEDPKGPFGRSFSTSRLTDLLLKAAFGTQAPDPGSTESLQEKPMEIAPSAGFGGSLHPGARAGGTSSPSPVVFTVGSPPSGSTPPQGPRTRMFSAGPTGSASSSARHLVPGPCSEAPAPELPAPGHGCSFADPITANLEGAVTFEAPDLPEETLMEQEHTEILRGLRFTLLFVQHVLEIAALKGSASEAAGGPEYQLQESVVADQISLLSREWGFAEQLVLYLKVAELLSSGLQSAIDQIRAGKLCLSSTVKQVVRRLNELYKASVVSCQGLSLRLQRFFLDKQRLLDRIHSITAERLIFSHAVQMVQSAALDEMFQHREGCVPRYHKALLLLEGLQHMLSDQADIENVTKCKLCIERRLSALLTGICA

Block 1
Structure (SMILES): O=C(Nc1ccc(Oc2ccc(F)cc2)cc1)N1CCc2ncccc2[C@H]1c1ccc(F)cc1
Read-out: cell-free assay
Technique: competition with immobilised ligand
Concentration: 1 µM
target | remaining binding
RIOK1 (Homo sapiens, UniProt Q9BRS2) | 100%
STK32B (Homo sapiens, UniProt Q9NY57) | 72%
CAMK1D (Homo sapiens, UniProt Q8IU85) | 100%
CAMK2G (Homo sapiens, UniProt Q13555) | 96%
PRKAA1 (Homo sapiens, UniProt Q13131) | 96%
GRK1 (Homo sapiens, UniProt Q15835) | 91%
PIK3C2G (Homo sapiens, UniProt O75747) | 100%
ULK2 (Homo sapiens, UniProt Q8IYT8) | 98%
HIPK4 (Homo sapiens, UniProt Q8NE63) | 96%
LRRK2 (Homo sapiens, UniProt Q5S007) | 76%
MAK (Homo sapiens, UniProt P20794) | 100%
BRSK2 (Homo sapiens, UniProt Q8IWQ3) | 95%
FGFR3 (Homo sapiens, UniProt P22607) | 83%
ULK1 (Homo sapiens, UniProt O75385) | 89%
FGR (Homo sapiens, UniProt P09769) | 100%

Block 2
Target: Sal-like protein 4, full length isoform B (SALL4, Homo sapiens, UniProt Q9UJQ4-2, residues 1-616)
Technique: universal PBM
Form: double-stranded DNA, one strand shown
Medium: in vitro
Concentration: not given
Setting: 8-mer, flanks averaged, mean of replicates
Reading: higher = stronger binding
Strand | E-score
TACTAAGA | 0.064
GGTAGTTA | 0.0148
ACGATACC | 0.0673
GCTACGCC | -0.258
GTATTCCA | 0.0857
AGACCCCA | -0.113
GACCTTGC | -0.244
CACCCGAG | -0.273

Block 3
Compound: Cn1nc2c3c(cccc31)C(=O)c1ccccc1-2
Read-out: enzyme activity
Action: inhibitor
Concentration: 0.5 µM
Baseline: control
target | remaining activity [%]
TBK1 (Homo sapiens, UniProt Q9UHD2) | 88.8
MAP2K2 (Homo sapiens, UniProt P36507) | 102
LCK (Homo sapiens, UniProt P06239) | 99.2
CSNK1G3 (Homo sapiens, UniProt Q9Y6M4) | 81.4
ACVR1B (Homo sapiens, UniProt P36896) | 102
GSK3B (Homo sapiens, UniProt P49841) | 94
MAP3K14 (Homo sapiens, UniProt Q99558) | 107
ULK2 (Homo sapiens, UniProt Q8IYT8) | 109
TEK (Homo sapiens, UniProt Q02763) | 98.2
CSNK1G2 (Homo sapiens, UniProt P78368) | 91.5
FGFR1 (Homo sapiens, UniProt P11362) | 99.5
MERTK (Homo sapiens, UniProt Q12866) | 95.9

Block 4
Target: Eukaryotic initiation factor 4A-I (EIF4A1, Homo sapiens, UniProt P60842, residues 1-406, full length assumed)
Chain of UniProt P60842 (whole entry, looked up): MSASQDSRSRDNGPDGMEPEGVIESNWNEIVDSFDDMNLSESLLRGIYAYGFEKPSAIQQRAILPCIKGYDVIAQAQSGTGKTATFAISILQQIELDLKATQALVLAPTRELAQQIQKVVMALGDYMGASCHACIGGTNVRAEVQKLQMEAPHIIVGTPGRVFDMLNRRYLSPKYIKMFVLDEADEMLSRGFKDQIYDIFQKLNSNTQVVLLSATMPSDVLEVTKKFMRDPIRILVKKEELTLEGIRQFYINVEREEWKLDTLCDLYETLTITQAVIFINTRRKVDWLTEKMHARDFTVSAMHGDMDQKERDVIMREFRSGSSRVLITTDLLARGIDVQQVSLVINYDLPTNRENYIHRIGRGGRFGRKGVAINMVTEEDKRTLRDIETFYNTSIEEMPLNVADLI
Technique: RNA Bind-n-Seq
Form: RNA
Medium: in vitro
Concentration: 15 pmol
Setting: 4-mer, random 30-nt RNA, single round
Together with: 3 µM RocA, 2 mM AMP-PNP
Baseline: mean of 4-mers
Reading: higher = stronger binding
Strand | 4-mer enrichment Z-score
GCAG | -0.0124
AAAU | 1.42
GUAA | 1.08
GUGG | 1.86
GGUU | 0.758
GCGC | 0.541
CGAG | 0.982
UCCA | -1.36

Repeated from above (block 4):
Strand | 4-mer enrichment Z-score
AAAU | 1.42
GUAA | 1.08
UCCA | -1.36
